Measurements from different studies.
Compare with care: the assays were run in different laboratories.
Method: steady-state kinetics
B1: protein (UniProt A0A4Y6I1D9); chain MTLDEKPRKFDGLDIEGVAFAASVTALGAAKPLALGGAGDRGLEINGNYIKFTAIGIYVEDGIIPHLSPKLRGKTVEELCEKELLFEEVISAPFEKLVRVVFLVPLTGIQYSEKVLERISVQSLFTDIKEEHKQQFLEIFKGESFPPRSSVILSFSKEGLKVAFAKGDDVPSKAVGTIEDATFADAVLATIIWKEGVSPAAKVSLAERLSKCL
B2: enzyme D185A (Thermococcus kodakarensis, UniProt Q5JID5); chain MLYVEILGNLPEMARDEVKAMLELGGGEIIGQDYLFLKVDAGEKAFPFLDRLGLAHEYGLLLVEADSVEELLQKAGEVEWPIKGAFKVDTETMANCRHDVLDLPRKLGAVIHAQGFRVNLSKPDTVVRVYCGERLYAGIRLRYFDPKDFEKRKAHHRPFFRPISLHPRVSRALVNLTKATREILAPFMGAGGILIEAGLLGLRVYGVDIRPEMVEGAETNLKHYGVRDYTLKLGDATRLEDLFPDKKFEAVATDPPYGTAATLAGRKRDELYRKALRSIYNVLEDGGRLAIAFPTDFNGKAEAEAVGFRTLGRYYQRVHKSLERYFYVFEK
B3: MsrP (Escherichia coli, UniProt P76342); chain DLLSWFKGNDRPPAPAGKALEFSKPAAWQNNLPLTPADKVSGYNNFYEFGLDKADPAANAGSLKTDPWTLKISGEVAKPLTLDHDDLTRRFPLEERIYRMRCVEAWSMVVPWIGFPLHKLLALAEPTSNAKYVAFETIYAPEQMPGQQDRFIGGGLKYPYVEGLRLDEAMHPLTLMTVGVYGKALPPQNGAPVRLIVPWKYGFKGIKSIVSIKLTRERPPTTWNLAAPDEYGFYANVNPYVDHPRWSQATERFIGSGGILDVQRQPTLLFNGYAAQVASLYRGLDLRENF
B4: Paox (Mus musculus, UniProt Q8C0L6); chain MAFPGPRVLVVGSGIAGLGAAQKLCSHRAAPHLRVLEATASAGGRIRSERCFGGVVELGAHWIHGPSQDNPVFQLAAEFGLLGEKELSEENQLVDTGGHVALPSMIWSSSGTSVSLELMTEMARLFYGLIERTREFLNESETPMASVGEFLKKEISQQVASWTEDDEDTRKRKLAILNTFFNIECCVSGTHSMDLVALAPFGEYTVLPGLDCILAGGYQGLTDRILASLPKDTVAFDKPVKTIHWNGSFQEAAFPGETFPVLVECEDGARLPAHHVIVTVPLGFLKEHQDTFFEPPLPAKKAEAIKKLGFGTNNKIFLEFEEPFWEPDCQFIQVVWEDTSPLQDTALSLQDTWFKKLIGFLVQPSFESSHVLCGFIAGLESEFMETLSDEEVLLSLTQVLRRVTGNPQLPAAKSVRRSQWHSAPYTRGSYSYVAVGSTGDDLDLMAQPLPEDGTGTQLQVLFAGEATHRTFYSTTHGALLSGWREADRLVSLWDSQVEQSRPRL
B5: enzyme (Tanacetum cinerariifolium, UniProt H6U1I8); chain SQQAAALFIFGDSVFDPGNNNHINTHVNFKANFWPYGQSYFSSPTGRFSDGRIIPDFIAEYASLPIIPAYLEPNNDFTHGANFASAGAGALIASHAGLAVGLQTQLRYFGDLVDHYRQNLGDIKSRQLLSDAVYLFSCGGNDYQSPYYPYTQEQYVDIVIGNMTNVIKGIYEKGGRKFGVVNVPLIGCWPGMRAKQPGNTCNTEVDELTRLHNQAFAKRLEQLEKQLEGFVYAKFDLSTAILNRMKNPSKYGFKEGESACCGSGPFGGNYDCGRIKEFGLCDNATEYFFFDPFHPNELASRQFAEMFWDGDSMVTQPYNLKALFEGKPSTKYLPNDEL
B6: TcC (Trypanosoma cruzi, UniProt Q4DGA3); chain MPREYEFAEKILFTEEEIRTRIMEVAKRIADDYKGKGLRPYVNPLVLISVLKGSFMFTADLCRALSDFNVPVRMEFICVSSYGEGVTSSGQVRMLLDTRHSIEGHHVLIVEDIVDTALTLNYLYHMYFTRRPASLKTVVLLDKREGRRVPFSADYVVANIPNAFVIGYGLDYDDTYRELRDIVVLRPEVYAEREAARQKKQRAIGSADTDRDAKREFHSKY
Chain of UniProt I0DFJ0 (whole entry, looked up): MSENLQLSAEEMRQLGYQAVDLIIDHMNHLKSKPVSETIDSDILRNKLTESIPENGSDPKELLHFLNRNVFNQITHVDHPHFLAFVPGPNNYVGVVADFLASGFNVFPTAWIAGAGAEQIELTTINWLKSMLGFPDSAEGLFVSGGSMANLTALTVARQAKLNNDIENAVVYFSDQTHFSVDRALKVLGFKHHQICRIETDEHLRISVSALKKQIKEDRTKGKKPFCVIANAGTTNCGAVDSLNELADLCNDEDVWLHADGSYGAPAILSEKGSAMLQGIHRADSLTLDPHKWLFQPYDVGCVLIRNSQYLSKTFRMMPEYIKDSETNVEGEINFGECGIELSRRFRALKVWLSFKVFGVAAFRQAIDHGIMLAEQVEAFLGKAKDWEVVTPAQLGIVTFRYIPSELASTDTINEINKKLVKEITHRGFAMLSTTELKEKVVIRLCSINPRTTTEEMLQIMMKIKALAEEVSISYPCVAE
Chain of UniProt Q9H1U9 (whole entry, looked up): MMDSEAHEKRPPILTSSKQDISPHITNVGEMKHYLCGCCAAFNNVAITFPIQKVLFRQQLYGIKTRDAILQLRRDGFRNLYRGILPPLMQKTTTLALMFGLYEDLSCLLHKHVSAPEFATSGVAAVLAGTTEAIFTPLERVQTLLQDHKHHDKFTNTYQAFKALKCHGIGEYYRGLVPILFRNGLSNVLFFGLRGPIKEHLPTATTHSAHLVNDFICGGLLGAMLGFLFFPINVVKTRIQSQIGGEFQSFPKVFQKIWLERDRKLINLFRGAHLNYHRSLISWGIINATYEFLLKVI
Chain of UniProt Q9H015 (whole entry, looked up): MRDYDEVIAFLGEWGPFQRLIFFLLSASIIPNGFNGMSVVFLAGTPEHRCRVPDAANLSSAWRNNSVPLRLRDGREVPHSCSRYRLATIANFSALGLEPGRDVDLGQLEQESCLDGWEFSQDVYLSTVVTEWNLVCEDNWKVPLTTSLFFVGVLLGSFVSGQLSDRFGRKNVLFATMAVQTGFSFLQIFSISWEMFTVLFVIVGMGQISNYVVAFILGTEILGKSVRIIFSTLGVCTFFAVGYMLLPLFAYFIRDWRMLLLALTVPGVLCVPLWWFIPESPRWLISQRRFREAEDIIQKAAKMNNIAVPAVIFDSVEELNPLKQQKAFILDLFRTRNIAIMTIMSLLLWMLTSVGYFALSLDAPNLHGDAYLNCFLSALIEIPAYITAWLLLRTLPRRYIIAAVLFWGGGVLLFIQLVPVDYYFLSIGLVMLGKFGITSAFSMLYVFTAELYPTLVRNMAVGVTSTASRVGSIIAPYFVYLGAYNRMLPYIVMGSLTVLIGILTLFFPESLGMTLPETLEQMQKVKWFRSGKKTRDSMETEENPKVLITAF

The Km of `AphC (Rhodococcus jostii, UniProt Q0S9X1)` is reported as 2.8 µM (Cc1ccc(O)c(O)c1; pH 8, 25 °C, apparent, added: O2).
The Km of `B1 (protein)` is reported as 96.5 µM (O=C(/C=C/c1ccc(O)cc1)c1c(O)cc(O)cc1O).
`Ptb (Listeria monocytogenes, UniProt Q8Y7B7)` has a Km of 79.9 µM (CCCC(=O)SCCNC(=O)CCNC(=O)[C@H](O)C(C)(C)COP(=O)(O)OP(=O)(O)OC[C@H]1O[C@@H](n2cnc3c(N)ncnc32)[C@H](O)[C@@H]1OP(=O)(O)O; pH 7.5, 25 °C, apparent).
The Km of `aromatic amino acid decarboxylase (Bacillus atrophaeus, UniProt I0DFJ0)` is reported as 400 µM (N[C@@H](Cc1c[nH]c2c(Br)cccc12)C(=O)O; pH 7, 37 °C, not purified, added: PLP 40 µM).
For `B2 (enzyme D185A)`, the Km was 6 µM (C[S+](CC[C@H](N)C(=O)O)C[C@H]1O[C@@H](n2cnc3c(N)ncnc32)[C@H](O)[C@@H]1O; pH 7.5, 50 °C, apparent).
With `enzyme (Homo sapiens, UniProt Q9H1U9)` the Km was 200 µM (NC(=O)c1ccc[n+]([C@@H]2O[C@H](COP(=O)(O)OP(=O)(O)OC[C@H]3O[C@@H](n4cnc5c(N)ncnc54)[C@H](O)[C@@H]3O)[C@@H](O)[C@H]2O)c1; pH 6.8, apparent, not purified).
With `B3 (MsrP)` the Km was 8000 µM (C[S@+]([O-])CC[C@H](N)C(=O)O; pH 7, 30 °C, added: benzyl viologen 0.4 mM).
`B4 (Paox)` has a Km of 210 µM (CC(=O)NCCCNCCCCNCCCN; pH 10, 30 °C).
The Km of `SLC22A4 (Homo sapiens, UniProt Q9H015)` is reported as 13 µM (C[N+](C)(C)[C@@H](Cc1cnc([Se][Se]c2ncc(C[C@@H](C(=O)[O-])[N+](C)(C)C)[nH]2)[nH]1)C(=O)[O-]; not purified).
`B5 (enzyme)` has a Km of 376 µM (C=C/C=C\CC1=C(C)[C@@H](O)CC1=O; pH 7.5, 25 °C).
`B6 (TcC)` gave a Km of 14 µM (Nc1nc2nc[nH]c2c(=O)[nH]1; pH 8.3, 37 °C, apparent, added: PRPP 1 mM, MgCl2 12 mM).

Excerpt of the above:
The Km of `SLC22A4 (Homo sapiens, UniProt Q9H015)` is reported as 13 µM (C[N+](C)(C)[C@@H](Cc1cnc([Se][Se]c2ncc(C[C@@H](C(=O)[O-])[N+](C)(C)C)[nH]2)[nH]1)C(=O)[O-]; not purified).
